Measurements gathered from unrelated publications.
Each numbered part is a random draw from the data of one study; scales do not carry over between parts.

Series 1 — method: protein binding microarray; form: double-stranded DNA, one strand shown; medium: in vitro; concentration: not given; relative to: not given; reading: higher = stronger binding
Target: Histone acetyltransferase KAT6A, both winged helices, GST fusion (KAT6A, Homo sapiens, UniProt Q92794, residues 1-181)
Notes: 8-mer, flanks averaged, mean of 2 arrays, mostly near background
Construct (chain): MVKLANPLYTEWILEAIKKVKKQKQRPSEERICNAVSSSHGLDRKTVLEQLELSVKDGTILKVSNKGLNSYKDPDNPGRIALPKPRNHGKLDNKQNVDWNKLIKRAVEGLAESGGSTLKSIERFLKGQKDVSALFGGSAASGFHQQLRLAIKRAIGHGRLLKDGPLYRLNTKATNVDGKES
Strand | E-score
AGGGCTAC | -0.132
ATCTCCCG | 0.211
GCAGTCAC | -0.00814
GGGGTTGA | -0.0957
GAGGGGGC | -0.14
GCCCGAAA | -0.0286
GAAACGAA | -0.0843
CCCGGATA | 0.0748

Series 2 — method: RNA Bind-n-Seq; form: RNA; medium: in vitro; concentration: 1 µM; notes: whole 134-nt RNA, ends assumed; together with: 150 mM KCl; relative to: input library; reading: higher = stronger binding
Target: Ras GTPase-activating protein-binding protein 1, RRM domain (G3BP1, Homo sapiens, UniProt Q13283)
UniProt Q13283, sequence (whole entry, looked up): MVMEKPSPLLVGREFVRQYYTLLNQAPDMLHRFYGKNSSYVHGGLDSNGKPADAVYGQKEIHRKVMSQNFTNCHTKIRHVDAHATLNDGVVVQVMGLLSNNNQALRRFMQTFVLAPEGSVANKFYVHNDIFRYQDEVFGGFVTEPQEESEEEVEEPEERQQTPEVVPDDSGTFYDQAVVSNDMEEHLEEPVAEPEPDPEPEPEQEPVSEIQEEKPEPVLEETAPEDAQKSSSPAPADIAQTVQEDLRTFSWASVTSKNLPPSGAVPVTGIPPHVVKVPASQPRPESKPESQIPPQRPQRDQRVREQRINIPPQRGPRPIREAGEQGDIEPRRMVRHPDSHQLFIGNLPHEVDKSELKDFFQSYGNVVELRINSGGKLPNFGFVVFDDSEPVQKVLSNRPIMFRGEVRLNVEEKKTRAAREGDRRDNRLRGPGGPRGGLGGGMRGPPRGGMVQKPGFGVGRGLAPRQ
Shared flanks, not repeated: GGGAGUUCUACAGUCCGACGAUC … UGGAAUUCUCGGGUGUCAAGG
Strand | log2 enrichment
CACAGACAACACGCACCCACACAGACACAGAGGGAGGGGGUUGGGAUGGGGACAGGGUGCACAGCAGGGCGGGGUAGGACCCCAGCCCCU | 0.13
CCUGUGCUACACAUCGUAUGUACCGAAUCGGGGCCCCCCGGGCCCCCCGGGCCCCCCGGGAAAGUAUUAUGUUACGCCGUUCGGAUCUGC | -0.68
CUCAAGUCCUGUGCUACACAUCGUAUGUACCGAAUCGGGGCCGGCCGGGGCCGGAAAGUAUUAUGUUACGCCGUUCGGAUCUGCACUUCC | -0.681
ACCAUGCAGGUGGGCAUCUUUGGGAAGUGGGGCGAGGGGGGGAUAGGGAGGGGGGUAACACUUUGGGAACAGGUGGUCCCAGGUCGUUUC | -0.452
CACAGACAACAAACACCCACACAGACACAGAGGGAAGGGGUUGGGAUGGGGACAGGGUGCACAGCAGGGCGGGGUAGGACCCCAGCCCCU | -0.225
GUCCUGUGCUACACAUCGUAUGUACCGAAUCAAAUUUUUAAACCCCCCCAAACCCAAAAAAGUAUUAUGUUACGCCGUUCGGAUCUGCAC | -0.504
UAGCAUAUUGCCUUGUUCACUACCGAGGAGAUGAGAAGAUUAAAGGUUUCAUAUGGGAUCUCAUUACUCCAACUGAAGAUGGACAGACAC | 0.139

Series 3 — method: universal PBM; form: double-stranded DNA, one strand shown; medium: in vitro; concentration: 600 nM; reading: higher = stronger binding
Target: Sal-like protein 4, full length isoform A (SALL4, Homo sapiens, UniProt Q9UJQ4, residues 1-1053)
UniProt Q9UJQ4, sequence (whole entry, looked up): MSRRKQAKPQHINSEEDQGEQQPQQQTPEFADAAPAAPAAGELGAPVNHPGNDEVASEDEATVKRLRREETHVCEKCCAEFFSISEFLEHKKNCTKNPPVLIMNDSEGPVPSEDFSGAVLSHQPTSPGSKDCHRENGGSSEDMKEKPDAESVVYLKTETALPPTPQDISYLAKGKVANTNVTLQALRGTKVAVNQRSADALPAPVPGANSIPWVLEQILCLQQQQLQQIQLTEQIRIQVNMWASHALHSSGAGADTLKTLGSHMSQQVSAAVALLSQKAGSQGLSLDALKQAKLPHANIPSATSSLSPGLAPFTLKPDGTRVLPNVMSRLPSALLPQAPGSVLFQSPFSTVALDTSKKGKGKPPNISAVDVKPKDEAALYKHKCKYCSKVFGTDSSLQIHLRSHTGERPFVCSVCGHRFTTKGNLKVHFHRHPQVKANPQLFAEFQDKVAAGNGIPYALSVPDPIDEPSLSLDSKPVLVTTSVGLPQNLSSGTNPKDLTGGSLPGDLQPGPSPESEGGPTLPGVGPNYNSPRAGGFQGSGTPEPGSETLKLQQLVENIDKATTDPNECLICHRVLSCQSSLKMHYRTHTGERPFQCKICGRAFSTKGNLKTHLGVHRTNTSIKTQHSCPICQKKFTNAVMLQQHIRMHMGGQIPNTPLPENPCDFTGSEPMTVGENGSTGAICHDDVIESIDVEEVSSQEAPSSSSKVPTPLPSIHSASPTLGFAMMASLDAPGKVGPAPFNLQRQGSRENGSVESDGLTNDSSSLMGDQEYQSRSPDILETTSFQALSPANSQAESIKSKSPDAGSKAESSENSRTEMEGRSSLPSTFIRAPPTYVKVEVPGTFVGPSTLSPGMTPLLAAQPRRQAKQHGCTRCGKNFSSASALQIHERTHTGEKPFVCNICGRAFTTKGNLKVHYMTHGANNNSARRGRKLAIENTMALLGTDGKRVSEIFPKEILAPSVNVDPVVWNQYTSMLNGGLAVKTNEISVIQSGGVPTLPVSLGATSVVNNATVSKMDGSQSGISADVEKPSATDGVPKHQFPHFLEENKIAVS
Notes: 8-mer, flanks averaged, mean of replicates
Strand | E-score
AAAGGGAG | -0.131
GTTTTATA | 0.3
ACTGTTGC | -0.0682
GAGTGTCA | -0.00483
CGTCTCCC | -0.189
CCGAAGGA | -0.246
CCGAATGC | -0.248
GGACCCGA | -0.275
ACGAACGC | -0.119

Other studies, line by line
Substance | target | assay | system | conditions | how to read | quantity | result
PhoQ, residues 284 288 289 292 302 303 SSTLLI | PhoP, residues 12 14 15 18 19 MHTVL (Escherichia coli, UniProt P23836) | Sort-seq, measured: YFP reporter | E. coli | PhoQ-PhoP variant library, together with: 10 µM Mg2+ | relative to: high Mg2+ state, higher = stronger signaling | fold induction | 12.7
